Experimental data of several laboratories.
Protocols differ between the studies behind these lines. Numbers after ± are the reported error.
ELANE: Neutrophil elastase (ELANE, Homo sapiens, UniProt P08246)
UniProt P08246, sequence (whole entry, looked up): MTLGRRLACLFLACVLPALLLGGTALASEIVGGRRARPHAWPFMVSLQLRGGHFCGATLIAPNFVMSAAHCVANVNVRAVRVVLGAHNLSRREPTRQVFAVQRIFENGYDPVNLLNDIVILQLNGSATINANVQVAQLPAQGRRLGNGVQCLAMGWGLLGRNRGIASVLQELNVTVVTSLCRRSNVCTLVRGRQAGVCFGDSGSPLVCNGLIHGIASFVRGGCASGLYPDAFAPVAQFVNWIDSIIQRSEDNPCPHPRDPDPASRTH
RIPK2: Receptor-interacting serine/threonine-protein kinase 2 (RIPK2, Homo sapiens, UniProt O43353)
UniProt O43353, sequence (whole entry, looked up): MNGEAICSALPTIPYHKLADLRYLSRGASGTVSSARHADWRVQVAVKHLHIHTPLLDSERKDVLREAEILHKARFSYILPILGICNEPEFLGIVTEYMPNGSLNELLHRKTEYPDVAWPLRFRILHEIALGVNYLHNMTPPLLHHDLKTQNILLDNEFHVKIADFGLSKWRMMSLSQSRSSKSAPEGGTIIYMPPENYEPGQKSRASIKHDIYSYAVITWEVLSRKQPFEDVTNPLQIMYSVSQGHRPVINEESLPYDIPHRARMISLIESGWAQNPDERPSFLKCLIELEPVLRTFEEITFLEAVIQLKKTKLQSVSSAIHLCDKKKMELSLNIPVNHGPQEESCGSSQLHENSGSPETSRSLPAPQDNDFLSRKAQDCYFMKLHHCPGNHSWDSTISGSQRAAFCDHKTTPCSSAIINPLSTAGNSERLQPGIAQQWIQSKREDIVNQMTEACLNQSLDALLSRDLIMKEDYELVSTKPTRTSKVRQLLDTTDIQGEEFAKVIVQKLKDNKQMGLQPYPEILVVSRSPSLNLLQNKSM
Ephx2: Bifunctional epoxide hydrolase 2 (Ephx2, Mus musculus, UniProt P34914)
UniProt P34914, sequence (whole entry, looked up): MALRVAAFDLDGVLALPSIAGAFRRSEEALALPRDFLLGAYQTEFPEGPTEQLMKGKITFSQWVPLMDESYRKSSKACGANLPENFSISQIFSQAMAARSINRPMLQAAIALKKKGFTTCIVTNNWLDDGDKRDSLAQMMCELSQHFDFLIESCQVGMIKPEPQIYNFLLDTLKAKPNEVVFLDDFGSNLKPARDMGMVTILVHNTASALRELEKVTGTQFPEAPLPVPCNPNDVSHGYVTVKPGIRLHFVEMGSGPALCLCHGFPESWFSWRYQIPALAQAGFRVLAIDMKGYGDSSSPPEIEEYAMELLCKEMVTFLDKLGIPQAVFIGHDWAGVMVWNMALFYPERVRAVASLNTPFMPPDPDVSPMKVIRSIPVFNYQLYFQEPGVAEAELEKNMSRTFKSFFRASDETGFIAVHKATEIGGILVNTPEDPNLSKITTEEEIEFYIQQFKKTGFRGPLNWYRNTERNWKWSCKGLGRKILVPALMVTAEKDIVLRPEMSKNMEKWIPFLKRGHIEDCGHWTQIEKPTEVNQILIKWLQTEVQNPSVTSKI
EHMT2: Histone-lysine N-methyltransferase EHMT2 (EHMT2, Homo sapiens, UniProt Q96KQ7)
UniProt Q96KQ7, sequence (whole entry, looked up): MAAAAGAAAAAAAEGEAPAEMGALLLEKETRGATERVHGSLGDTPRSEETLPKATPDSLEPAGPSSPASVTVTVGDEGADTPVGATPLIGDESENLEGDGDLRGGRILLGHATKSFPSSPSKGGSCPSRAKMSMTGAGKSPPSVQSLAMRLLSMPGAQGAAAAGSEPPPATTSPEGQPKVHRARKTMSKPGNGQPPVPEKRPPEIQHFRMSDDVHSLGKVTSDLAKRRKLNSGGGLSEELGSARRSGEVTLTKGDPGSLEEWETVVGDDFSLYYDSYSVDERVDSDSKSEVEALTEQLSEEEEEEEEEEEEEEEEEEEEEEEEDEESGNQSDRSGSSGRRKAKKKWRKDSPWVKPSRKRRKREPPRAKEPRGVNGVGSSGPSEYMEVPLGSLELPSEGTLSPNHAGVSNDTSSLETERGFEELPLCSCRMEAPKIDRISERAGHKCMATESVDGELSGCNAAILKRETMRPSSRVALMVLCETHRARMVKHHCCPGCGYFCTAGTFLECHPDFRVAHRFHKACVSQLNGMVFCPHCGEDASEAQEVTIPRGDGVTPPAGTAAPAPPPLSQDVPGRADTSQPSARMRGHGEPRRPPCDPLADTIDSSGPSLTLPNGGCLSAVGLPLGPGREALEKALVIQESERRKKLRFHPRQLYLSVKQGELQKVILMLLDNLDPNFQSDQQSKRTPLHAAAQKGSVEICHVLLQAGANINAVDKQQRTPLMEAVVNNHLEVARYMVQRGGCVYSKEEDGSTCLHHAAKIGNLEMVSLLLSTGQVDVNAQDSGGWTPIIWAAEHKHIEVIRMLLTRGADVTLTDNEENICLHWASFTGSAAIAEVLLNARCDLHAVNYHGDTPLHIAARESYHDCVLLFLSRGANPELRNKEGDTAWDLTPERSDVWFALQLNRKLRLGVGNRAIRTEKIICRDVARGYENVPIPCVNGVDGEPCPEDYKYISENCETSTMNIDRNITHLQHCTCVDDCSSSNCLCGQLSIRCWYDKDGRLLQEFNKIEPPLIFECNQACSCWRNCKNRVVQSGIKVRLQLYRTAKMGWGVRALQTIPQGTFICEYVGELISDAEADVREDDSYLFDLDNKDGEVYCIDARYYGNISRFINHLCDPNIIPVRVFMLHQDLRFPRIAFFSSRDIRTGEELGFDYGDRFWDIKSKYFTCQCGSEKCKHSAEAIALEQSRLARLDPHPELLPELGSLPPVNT
UniProt Q8NI77, sequence (whole entry, looked up): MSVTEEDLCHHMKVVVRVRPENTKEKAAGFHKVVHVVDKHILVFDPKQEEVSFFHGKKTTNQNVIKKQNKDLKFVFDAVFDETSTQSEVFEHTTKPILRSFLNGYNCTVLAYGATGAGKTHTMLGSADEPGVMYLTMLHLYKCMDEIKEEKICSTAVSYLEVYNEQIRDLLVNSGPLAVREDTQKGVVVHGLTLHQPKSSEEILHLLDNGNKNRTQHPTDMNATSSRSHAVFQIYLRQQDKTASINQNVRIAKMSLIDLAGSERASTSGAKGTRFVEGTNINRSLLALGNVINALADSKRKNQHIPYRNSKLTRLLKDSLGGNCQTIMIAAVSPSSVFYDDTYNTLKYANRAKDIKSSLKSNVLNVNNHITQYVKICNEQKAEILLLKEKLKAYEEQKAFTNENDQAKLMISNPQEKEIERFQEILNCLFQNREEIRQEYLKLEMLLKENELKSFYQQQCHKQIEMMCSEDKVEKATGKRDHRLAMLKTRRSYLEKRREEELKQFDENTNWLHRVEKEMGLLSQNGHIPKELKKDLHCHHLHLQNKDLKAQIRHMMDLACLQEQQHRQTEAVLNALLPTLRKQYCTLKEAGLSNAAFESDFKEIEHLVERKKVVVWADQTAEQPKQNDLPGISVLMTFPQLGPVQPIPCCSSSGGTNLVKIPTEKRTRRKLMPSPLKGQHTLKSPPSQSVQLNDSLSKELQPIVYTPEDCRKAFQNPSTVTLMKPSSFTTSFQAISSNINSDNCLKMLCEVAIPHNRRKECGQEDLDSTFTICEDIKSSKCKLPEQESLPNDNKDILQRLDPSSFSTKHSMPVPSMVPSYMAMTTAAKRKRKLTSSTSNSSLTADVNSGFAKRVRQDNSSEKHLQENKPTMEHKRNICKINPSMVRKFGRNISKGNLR
UniProt P18031, sequence (whole entry, looked up): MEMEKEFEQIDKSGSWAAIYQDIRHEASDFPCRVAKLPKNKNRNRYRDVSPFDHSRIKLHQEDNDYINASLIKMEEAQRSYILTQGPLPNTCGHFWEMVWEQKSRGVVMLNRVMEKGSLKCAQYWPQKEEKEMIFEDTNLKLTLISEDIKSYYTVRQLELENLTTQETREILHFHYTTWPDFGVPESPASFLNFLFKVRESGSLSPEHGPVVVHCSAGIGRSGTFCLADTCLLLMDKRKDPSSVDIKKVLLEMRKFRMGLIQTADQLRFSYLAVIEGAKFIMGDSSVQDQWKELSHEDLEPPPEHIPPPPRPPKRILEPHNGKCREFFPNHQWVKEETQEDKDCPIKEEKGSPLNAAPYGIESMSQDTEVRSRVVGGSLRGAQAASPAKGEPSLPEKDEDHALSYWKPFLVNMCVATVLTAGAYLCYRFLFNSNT
UniProt P56524, sequence (whole entry, looked up): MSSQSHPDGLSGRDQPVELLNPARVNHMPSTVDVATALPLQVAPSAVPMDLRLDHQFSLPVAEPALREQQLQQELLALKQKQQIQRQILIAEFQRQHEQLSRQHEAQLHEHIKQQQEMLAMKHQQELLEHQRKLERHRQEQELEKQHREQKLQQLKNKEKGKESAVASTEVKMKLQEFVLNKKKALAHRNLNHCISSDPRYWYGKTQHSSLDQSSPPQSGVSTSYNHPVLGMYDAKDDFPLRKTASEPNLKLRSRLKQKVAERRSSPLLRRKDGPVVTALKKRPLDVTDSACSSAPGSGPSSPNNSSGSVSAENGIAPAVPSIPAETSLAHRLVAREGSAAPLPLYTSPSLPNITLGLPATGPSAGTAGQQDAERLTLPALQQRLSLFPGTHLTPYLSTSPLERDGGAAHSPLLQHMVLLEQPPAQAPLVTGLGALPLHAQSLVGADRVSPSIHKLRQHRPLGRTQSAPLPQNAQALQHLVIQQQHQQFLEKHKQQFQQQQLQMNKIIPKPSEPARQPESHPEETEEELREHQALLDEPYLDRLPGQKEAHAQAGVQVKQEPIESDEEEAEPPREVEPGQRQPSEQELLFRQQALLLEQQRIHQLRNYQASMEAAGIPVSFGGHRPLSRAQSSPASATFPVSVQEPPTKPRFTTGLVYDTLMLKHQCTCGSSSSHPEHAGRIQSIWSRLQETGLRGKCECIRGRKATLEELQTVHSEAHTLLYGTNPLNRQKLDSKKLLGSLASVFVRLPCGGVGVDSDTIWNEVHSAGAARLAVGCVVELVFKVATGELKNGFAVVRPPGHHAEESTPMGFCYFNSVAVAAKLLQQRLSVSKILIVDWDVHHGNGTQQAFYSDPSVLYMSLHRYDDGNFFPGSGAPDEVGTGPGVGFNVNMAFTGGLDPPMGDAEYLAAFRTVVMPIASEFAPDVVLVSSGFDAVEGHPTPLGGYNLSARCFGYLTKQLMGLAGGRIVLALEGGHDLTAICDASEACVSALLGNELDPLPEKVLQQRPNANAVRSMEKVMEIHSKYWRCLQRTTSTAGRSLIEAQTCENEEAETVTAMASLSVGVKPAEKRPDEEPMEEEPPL

N=C(N)NCCC[C@H](NC(=O)[C@H](CC(=O)O)NC(=O)[C@@H]1CSCCCC(=O)NCC(=O)N[C@@H](Cc2c[nH]cn2)C(=O)N[C@H](Cc2ccccc2)C(=O)N[C@@H](CCCNC(=N)N)C(=O)N[C@@H](Cc2c[nH]c3ccccc23)C(=O)N1)C(=O)N[C@@H](Cc1ccccc1)C(=O)NCC(N)=O  IC50 (Melanocyte-stimulating hormone receptor (MC1R, Homo sapiens, UniProt Q01726); ligand displacement, radioligand): 29 nM
COC1C=CC=C(C)C(=O)NC2=CC(=O)C(NCCN(C)C)=C(CC(C)CC(OC)C(O)C(C)C=C(C)C1OC(N)=O)C2=O (stereo not drawn)  IC50 (Lysine-specific demethylase 3A (KDM3A, Homo sapiens, UniProt Q9Y4C1); enzyme activity, inhibitor, AlphaScreen): < 1000 nM
C=CC(=O)N1CCc2ccc(-n3c(=O)ccc4cnc5ccc(-c6cnn(C)c6)cc5c43)cc21  IC50 (Tyrosine-protein kinase Fgr (FGR, Homo sapiens, UniProt P09769); enzyme activity, inhibitor): 6180 nM
CC1=NN(S(=O)(=O)c2ccc(C)cc2)B(O)c2ccccc21  IC50 (ELANE; enzyme activity, inhibitor, fluorescence): 11700 nM
C=CC1C(OC2OC(CO)C(O)C(O)C2O)OC=C(C(=O)OC)C1C=CCC(=O)OC (stereo not drawn)  IC50 (Tyrosine-protein phosphatase non-receptor type 1 (PTPN1, Homo sapiens, UniProt P18031); enzyme activity, inhibitor, absorbance): > 100000 nM
CCCC(=O)Oc1cc(OC(=O)CCC)c2c(c1)O[C@H](c1cc(OC(=O)CCC)c(OC(=O)CCC)c(OC(=O)CCC)c1)[C@H](OC(=O)c1cc(OC(=O)CCC)c(OC(=O)CCC)c(OC(=O)CCC)c1)C2  IC50 (Genome polyprotein, protease (Hepatitis C virus genotype 1a, UniProt P27958); enzyme activity, inhibitor, fluorescence): 980 nM
CC(C)=CCN=C(N)NCCC[C@@H](NC(=O)CCCc1ccc(O)cc1)C(=O)N[C@@H](Cc1ccccc1)C(O)CC(=O)N[C@@H](Cc1ccc(O)cc1)C(=O)O (stereo in doubt)  IC50 (Cathepsin D (CTSD, Homo sapiens, UniProt P07339); enzyme activity, inhibitor): 20000 nM
Cc1ccc(NC(=O)Nc2cnn(-c3cccc(C(=O)Nc4ccnc(C)c4)c3)c2)cc1  IC50 (Mitogen-activated protein kinase 10 (MAPK10, Homo sapiens, UniProt P53779); enzyme activity, inhibitor, TR-FRET): 345 nM
COCc1cc2c(cn1)CN(C(=O)Nc1nc(-c3ccc(F)cc3)ccc1N)C2  IC50 (Histone deacetylase 4 (HDAC4, Homo sapiens, UniProt P56524); deacetylase activity, inhibitor, recombinant enzyme): > 30000 nM
CN1CCN(Cc2ccc(NC(=O)c3ccc(C(C)(C)C)c(C#Cc4cnc5cccnn45)c3)cc2C(F)(F)F)CC1  IC50 (RIPK2; enzyme activity, inhibitor, ADP-Glo kinase; 10 ng enzyme): > 10000 nM
O=C1C2=C(Nc3ccccc3SC2C2CC2)c2ccccc21 (racemic)  IC50 (MT-CYB, bc1 complex (Plasmodium falciparum, UniProt Q02768); enzyme activity, inhibitor; purified mitochondrial fractions): 7 ± 2.2 nM
Cc1ccc(C(=O)Nc2cc(S(=O)(=O)O)cc3ccc(S(=O)(=O)O)cc23)cc1NC(=O)Nc1cc(C(=O)Nc2cc(S(=O)(=O)O)cc3ccc(S(=O)(=O)O)cc23)ccc1C  IC50 (ELANE; enzyme activity, inhibitor, absorbance; pH 7.4): 88300 nM
O=C(Nc1ccc(-c2nc3ccccc3s2)cc1)C1CCN(S(=O)(=O)c2ccccc2Cl)CC1  IC50 (Ephx2; enzyme activity, inhibitor, fluorescence; pH 7.4): 813 nM
CCNC(=O)[C@H]1O[C@@H](n2cnc3c(NCCCCCCCCNC(=O)CCCCCNC(=O)COc4ccc(/C=C/C5=[N+]6C(=Cc7ccc(-c8cccs8)n7[B-]6(F)F)C=C5)cc4)ncnc32)[C@H](O)[C@@H]1O  IC50 (Adenosine receptor A1 (ADORA1, Homo sapiens, UniProt P30542); ligand displacement in cells, radioligand): 912 nM
O=C(C1CC1)N1CC=C(c2cc3c(Nc4cc5ncsc5cc4F)ncnc3s2)CC1  IC50 (RIPK2; enzyme activity, inhibitor): 11 nM
CC12CC3(C)CC(C)(C1)CC(NC(=O)NC14CC5CC(CC(C5)C1)C4)(C2)C3  IC50 (Ephx2; enzyme activity, inhibitor, fluorescence): 107 nM
CCOc1cncc(-c2ccc(NC(=O)C(CC)c3ccnc(NS(=O)(=O)C4CC4)n3)nc2)n1 (stereo not drawn)  IC50 (CTP synthase 1 (Homo sapiens, UniProt P17812); cell viability; CTPS-null Jurkat with human CTPS1; 3 days): 13 nM
C=CS(=O)(=O)Nc1ccc2nc(NCCCCCN(C)C)nc(NCCCCCCN(C)C)c2c1  IC50 (Histone-lysine N-methyltransferase SETDB1, triple tudor domain (SETDB1, Homo sapiens, UniProt Q15047, C385A); binding, TR-FRET displacement; 1 h, room temperature): 2500 ± 500 nM
O=C(/C=C(\O)C(F)(F)C(F)(F)F)c1cccnc1  IC50 (Formate-nitrite transporter (Plasmodium vivax, UniProt A0A1G4GWI6)): 230 ± 10 nM
COc1cc(O)c(C(CCc2ccc(O)cc2OC)c2ccc(O)cc2)cc1CCC(=O)c1ccc(O)cc1 (stereo not drawn)  IC50 (Polyunsaturated fatty acid 5-lipoxygenase (ALOX5, Homo sapiens, UniProt P09917); enzyme activity, inhibitor): 600 nM
N#Cc1ccc(N(Cc2ccc(OS(N)(=O)=O)cc2F)n2cnnc2)cc1  IC50 (Steryl-sulfatase (STS, Homo sapiens, UniProt P08842); enzyme activity, inhibitor; JEG-3 intact monolayers): 10 to 100 nM
CN(Cc1ccon1)C(=O)c1cccc(-c2ccc(F)cc2)c1  IC50 (Acetyl-CoA synthetase (Cryptococcus neoformans, UniProt J9VFT1)): > 50000 nM
COc1cc2c(NC3CCN(C(C)C)CC3)cc(N3CCOCC3)nc2cc1OCCCN1CCCC1  IC50 (EHMT2; enzyme activity, inhibitor): 19 nM
O=C1NC(=S)S/C1=C\c1cccc(O)c1O  IC50 (Phosphatidylinositol 4,5-bisphosphate 3-kinase catalytic subunit alpha isoform (PIK3CA, Homo sapiens, UniProt P42336); enzyme activity, inhibitor, radiometric): 7300 nM
N=C(N)NCCCC(N)C(=O)NCC(=O)NC(CCCCNC(=N)NCCSCC1OC(n2cnc3c(N)ncnc32)C(O)C1O)C(N)=O (stereo not drawn)  IC50 (EHMT2; enzyme activity, inhibitor, fluorescence): ~10000 nM
C#Cc1cccc(Nc2ncnc3cc(OC)c(OCCCN4CCOCC4)cc23)c1  IC50 (Vascular endothelial growth factor receptor 1 (FLT1, Homo sapiens, UniProt P17948); kinase activity, inhibitor; added: ATP 80.8 µM): 5020 ± 153 nM
CCCNC(=O)NC1CC=C(c2cc3c(Nc4cc5ncsc5cc4F)ncnc3s2)CC1 (racemic)  IC50 (RIPK2; enzyme activity, inhibitor): 11 nM
CCCn1cc(C(CC(=O)O)C(=O)O)c2ccccc21 (stereo not drawn)  IC50 (P2Y purinoceptor 14 (P2RY14, Homo sapiens, UniProt Q15391); antagonist): 18.6 nM
COC(=O)C1C(C=NN=CC2=Cc3cc4c(cc3C(c3cc(OC)c(OC)c(OC)c3)C2C(=O)OC)OCO4)=Cc2cc3c(cc2C1c1cc(OC)c(OC)c(OC)c1)OCO3 (stereo not drawn)  IC50 (tubulin alpha/beta (Leishmania infantum, UniProt A0A381MCS3+A4HTR0); tubulin polymerization, inhibitor; 37 °C): > 20000 nM
O=[N+]([O-])c1cc(Cl)ccc1S(=O)(=O)c1ccccc1  IC50 (Kinesin-like protein KIF18A (KIF18A, Homo sapiens, UniProt Q8NI77); microtubule-stimulated ATPase, inhibitor, enzyme-coupled): 610 nM
CN(C)c1nc2c(N)[n+]3cnc2n1[C@@H]1O[C@H](COP(=O)([O-])OP(=O)(O)OC[C@H]2O[C@@H]3[C@H](O)[C@@H]2O)[C@@H](O)[C@H]1O  IC50 (cADPR receptor, sea urchin; cADPR-induced Ca2+ release, antagonist, fluo-3 fluorimetry; sea urchin egg homogenate): > 40000 nM
CCN1C(=O)/C(=C\c2ccc(O)cc2)SC1=S  IC50 (Estrogen receptor (ESR1, Homo sapiens, UniProt P03372); coactivator recruitment, antagonist): 1190 nM
COc1cc(OC)c(C(=O)/C=C/c2cccc3ccccc23)c(OC)c1  IC50 (Broad substrate specificity ATP-binding cassette transporter ABCG2 (ABCG2, Homo sapiens, UniProt Q9UNQ0); mitoxantrone efflux, inhibitor, flow cytometry; HEK293 transfected; 30 min, 37 °C, added: mitoxantrone 5 µM): 12500 nM

Repeated from above:
C#Cc1cccc(Nc2ncnc3cc(OC)c(OCCCN4CCOCC4)cc23)c1  IC50 (Vascular endothelial growth factor receptor 1 (FLT1, Homo sapiens, UniProt P17948); kinase activity, inhibitor; added: ATP 80.8 µM): 5020 ± 153 nM
CCCNC(=O)NC1CC=C(c2cc3c(Nc4cc5ncsc5cc4F)ncnc3s2)CC1 (racemic)  IC50 (RIPK2; enzyme activity, inhibitor): 11 nM
CCCn1cc(C(CC(=O)O)C(=O)O)c2ccccc21 (stereo not drawn)  IC50 (P2Y purinoceptor 14 (P2RY14, Homo sapiens, UniProt Q15391); antagonist): 18.6 nM
COC(=O)C1C(C=NN=CC2=Cc3cc4c(cc3C(c3cc(OC)c(OC)c(OC)c3)C2C(=O)OC)OCO4)=Cc2cc3c(cc2C1c1cc(OC)c(OC)c(OC)c1)OCO3 (stereo not drawn)  IC50 (tubulin alpha/beta (Leishmania infantum, UniProt A0A381MCS3+A4HTR0); tubulin polymerization, inhibitor; 37 °C): > 20000 nM
O=[N+]([O-])c1cc(Cl)ccc1S(=O)(=O)c1ccccc1  IC50 (Kinesin-like protein KIF18A (KIF18A, Homo sapiens, UniProt Q8NI77); microtubule-stimulated ATPase, inhibitor, enzyme-coupled): 610 nM
